Assay results collected from several papers.
Lines come from different studies, so protocols differ.

Compound | assay | test system | conditions | scale | measurement | result
O=C(Nc1nc2cccc(-c3ccc(CN4CCS(=O)(=O)CC4)cc3)n2n1)C1CC1 | measured: bile reflux into stomach | rheumatoid arthritis patients | oral, 30 mg once daily, 4 weeks, any relatedness | – | patients with adverse event | 0%
C=CC(=O)Nc1cc(Nc2nccc(-c3cn(C)c4ccccc34)n2)c(OC)cc1N(C)CCN(C)C | measured: Thrombocytopenia grade ≥3 | EGFR-mutant MET-altered NSCLC | oral, dose not given, study | – | patients with treatment-related AEs | 0%
FC(F)(F)c1ccc(CNc2ccc(Cc3c[nH]c4ncc(Cl)cc34)cn2)cn1 | measured: skin hypopigmentation | non-TGCT solid tumour patients | oral, 1000 mg/day, grade 3 or higher | – | patients with treatment-related adverse event | 0%
CNC(=O)c1ccc(-c2cnc3ncc(Cc4ccc5ncccc5c4)n3n2)cc1F | measured: Nausea | other cancer patients | oral, 600 mg twice daily, expansion cohort, grade 3-4 | – | patients with adverse event | 0%
Cc1cc(-c2nnc(N)nc2-c2ccc(F)cc2)cc(Cl)n1 | measured: Dizziness | other solid tumours, post-IO | oral, 100 mg once daily, all grades | – | patients with treatment-related AE | 4.8%
CCOc1c([C@H](C)n2nc(C)c3c(N)ncnc32)cc(Cl)c(F)c1[C@@H]1CNC(=O)C1 | measured: QTcF change ≤30 ms | previously treated B-cell malignancy | oral, 5 mg once daily, baseline QTcF ≤450 ms | relative to: baseline | patients | 100%
C[C@@H](Nc1cc(F)cc(F)c1)c1cc(C(=O)N(C)C)cc2c(=O)cc(N3CCOCC3)oc12 | CTCAE v4, measured: autoimmune colitis | patients with advanced solid tumours | oral, dose not given, phase I dose finding | – | patients discontinuing for AE | 0%
COc1cc(Nc2ncc3c(n2)-c2ccc(Cl)cc2C(c2c(F)cccc2OC)=NC3)ccc1C(=O)O | measured: increased TSH, all grades | cancer patients, phase 1/2 | oral, dose not given, with: pembrolizumab | – | patients with adverse event | 13%
CC(C)C[C@H](NC(=O)CNC(=O)c1cc(Cl)ccc1Cl)B(O)O | measured: Arthralgia, all grades | newly diagnosed multiple myeloma patients | oral, dose not given, maintenance phase, new onset, cycle 17 or later | – | patients with adverse event | 39%
C[C@@H](c1ccc2nccn2c1)n1nnc2ncc(-c3cnn(C)c3)nc21 | measured: treatment-related grade ≥3 Pain | EGFR-mutant MET-altered NSCLC | oral, dose not given, all | – | patients with adverse events | 1%
Cc1cc(NC2CCN(C(=O)OC3CCN(C(=O)/C=C/CN(C)C)C3)CC2)n2ncc(C(C)C)c2n1 (stereo not shown) | Phase I dose escalation CTCAE v4.0, measured: AST increased | patients with advanced solid tumours | dose not given, Total dosing grade 3 or higher | – | patients with adverse event | 0%
COc1cc2nccc(Oc3ccc(NC(=O)c4cc5c(n(-c6ccccc6)c4=O)CCCC5=O)nc3)c2cc1OC | – | patients with relapsed/refractory AML | oral, 3 mg once daily | – | patients with drug-related serious TEAEs | 0%
CNC(=O)c1cc(Oc2ccc(NC(=O)Nc3cc(C(C)(C)C)nn3-c3ccc4ncccc4c3)c(F)c2)ccn1 | – | patients | oral, dose not given, cycles 1 and 2, Low AUC subgroup | – | patients with musculoskeletal disorders | 27%

A few entries again:
Compound | assay | test system | conditions | scale | measurement | result
CNC(=O)c1ccc(-c2cnc3ncc(Cc4ccc5ncccc5c4)n3n2)cc1F | measured: Nausea | other cancer patients | oral, 600 mg twice daily, expansion cohort, grade 3-4 | – | patients with adverse event | 0%
